Measured values pooled from the literature.
Every numbered part comes from another study and shows a few of its results, in no order. Changes are numbered by the printed parent chain.

Sample 1
Target: RNA binding protein fox-1 homolog 2, RRM domain, GST-SBP tag (RBFOX2, Homo sapiens, UniProt O43251-10, residues 100-194)
Method: RNA Bind-n-Seq
Form: RNA
Sample: in vitro
Concentration: 365 nM
Notes: natural RNA segment, single round, ends assumed
Baseline: no-protein control
Direction: higher = stronger binding
Target sequence (chain): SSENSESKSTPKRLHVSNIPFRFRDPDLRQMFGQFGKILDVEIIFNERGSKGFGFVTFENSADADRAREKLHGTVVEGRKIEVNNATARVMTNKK
| Oligonucleotide | RBNS enrichment (R) |
| --- | --- |
| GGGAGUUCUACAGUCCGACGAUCGAGCCAGUCCCCACCUAGUCCCGUCCCUGCCACCUACACCCAAGGUCUUCAGCUUUAAGUUGCUGGGGCCAGGCCCCGAGGAGGGUUUACUGAGGGGUCUGUAGGUUUGAUGGAAUUCUCGGGUGCCAA | 0.39 |
| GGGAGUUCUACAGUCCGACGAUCAAGGGAUGUCAGCUAGAGUGUAGAGCCAGGGAGAGACAGCCAGGGAUUCUCGCCUAGCUGAACCAAGAUGUAAAAUAGGAGAAAUGCUCCCUCCAUAGCCAAUCUGCAUCUGGAAUUCUCGGGUGCCAA | 0.784 |
| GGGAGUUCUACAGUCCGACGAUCACCUUGUUACAGUUGGUUUAGUGUAGUGGAUUAUUGACAUGACAUCAUGAGAAGAUGUGUAAUUUUAUACCACAUUUAUAAAACAUGAUUUUGUUUUCUACCCUUCAAGGUGGAAUUCUCGGGUGCCAA | 0.376 |
| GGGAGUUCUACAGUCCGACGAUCUAGUGAAGUUCUUUUACUGUAAUUGGUGACAAUGUCACAUAAUGAAUGCUAUUGAAAAGGUUAACAGAUACAGCUCGGAGUUGUGAGCACUCUACUGCAAGACUUAAAUAUGGAAUUCUCGGGUGCCAA | 16 |
| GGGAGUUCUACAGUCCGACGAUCAGUAUCGUGCAUUAAAUGGGCAGUGUUAAUGUAGAACCAGGGUUCUACCACAUGCAAGUCUGUGUCCACAGAGCCGUUCUUGAACUCCGUAUCAGUACAGCUUUCACCUGUGGAAUUCUCGGGUGCCAA | 0.552 |
| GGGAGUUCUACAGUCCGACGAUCCAUAAUUGCAGGAAUUAUUUUUUGUUUUUAAAACUGGAUUUGGGGCACAUUCAUUCACCCCAACACUUCUAUCUAAAGGCCAAGGUUCUAGGGCUGCUAUGGUCACUAACUGGAAUUCUCGGGUGCCAA | 0.319 |
| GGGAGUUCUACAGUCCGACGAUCUUUUUACUUCAGCUCAUCCAAAAGCAGCCAGCAGACCGGUUGACUGAGACCGGUCUGUGGCUGUGGGCCCCUUGGUGACCCGCUGCUCUUUUGGAAAUGGGUGACCUGAAUGGAAUUCUCGGGUGCCAA | 0.247 |
| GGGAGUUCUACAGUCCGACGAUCAUACUAGGAACAAGUAGUUUCCAUAUAUUUCGGAACUUUUAAAAAGACAAAAUGAAACAAAACCGAGCAGUUAUGGGUUUUGUUCUAUAGGAUGCCAUCAGCCAUCGAGGUGGAAUUCUCGGGUGCCAA | 0.485 |
| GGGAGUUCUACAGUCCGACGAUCUCCCUGUCAUCUGGGGAUGGGGAGGAAUUCAGGCCUGUUCACUUCCCCAGUUCUGUAGCAGCCGAUCAGCGUCACCUUUGAAGUAUACAUGAGAGAAAUAUAUUUACAAAUGGAAUUCUCGGGUGCCAA | 0.948 |
| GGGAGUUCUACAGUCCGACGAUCACUUAUGAUACUCAUCCCAUGUCUCAAUAAGAGUGUCUUUUCUUUCUGGAUGUGUUCUCUUACUCCCUCUUACCACCAUACUUUUUGCUCUCUUCUCCUGCAAGCGUAGUUGGAAUUCUCGGGUGCCAA | 0.817 |
| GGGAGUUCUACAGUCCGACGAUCACAAUAGGCCUUUUCUUUAUCAUUCAUACGACAUUUCUGGUUUAGGUGUAUGUAGUUGGGCCAUGUUACUUGUCCAGAGGAAGAGACUAAAGAUAUAAGAAUAAUUUUUUUGGAAUUCUCGGGUGCCAA | 0.586 |
| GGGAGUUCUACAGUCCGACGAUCUCCCUGUACGAGGAUGACAUCACCUUCUGAUACCCUGCCCUAGUCCCCCACCUUUGACUUAAGAUCCCACACCUCACAAACCUACAGCCCAGAAACCAGAAGCCCCUAUAUGGAAUUCUCGGGUGCCAA | 1.2 |

Sample 2
Target: CCNA2, cyclin fold, Cln2 fusion (human)
Method: yeast growth competition, sequencing
Sample: yeast
Notes: strong parent motif
Baseline: not given
Direction: higher = stronger binding
Starting sequence: KIF20B docking peptide (human); KRAKRKLYTSEIS
| Variant | normalised enrichment score |
| --- | --- |
| KRAKRKLYTAEIS [S10A] | 0.835 |
| KRAKRKLATSEIS [Y8A] | 0.477 |
| ARAKRKLYTSEIS [K1A] | 1.7 |
| KRAKRKLYTSAIS [E11A] | 1.7 |
| KRAARKLYTSEIS [K4A] | 1.21 |
| KRAKRALYTSEIS [K6A] | 1.11 |

Sample 3
Target: Sal-like protein 4, full length isoform B (SALL4, Homo sapiens, UniProt Q9UJQ4-2, residues 1-616)
Method: universal PBM
Form: double-stranded DNA, one strand shown
Sample: in vitro
Concentration: not given
Notes: 8-mer, flanks averaged, mean of replicates
Direction: higher = stronger binding
Residues (chain): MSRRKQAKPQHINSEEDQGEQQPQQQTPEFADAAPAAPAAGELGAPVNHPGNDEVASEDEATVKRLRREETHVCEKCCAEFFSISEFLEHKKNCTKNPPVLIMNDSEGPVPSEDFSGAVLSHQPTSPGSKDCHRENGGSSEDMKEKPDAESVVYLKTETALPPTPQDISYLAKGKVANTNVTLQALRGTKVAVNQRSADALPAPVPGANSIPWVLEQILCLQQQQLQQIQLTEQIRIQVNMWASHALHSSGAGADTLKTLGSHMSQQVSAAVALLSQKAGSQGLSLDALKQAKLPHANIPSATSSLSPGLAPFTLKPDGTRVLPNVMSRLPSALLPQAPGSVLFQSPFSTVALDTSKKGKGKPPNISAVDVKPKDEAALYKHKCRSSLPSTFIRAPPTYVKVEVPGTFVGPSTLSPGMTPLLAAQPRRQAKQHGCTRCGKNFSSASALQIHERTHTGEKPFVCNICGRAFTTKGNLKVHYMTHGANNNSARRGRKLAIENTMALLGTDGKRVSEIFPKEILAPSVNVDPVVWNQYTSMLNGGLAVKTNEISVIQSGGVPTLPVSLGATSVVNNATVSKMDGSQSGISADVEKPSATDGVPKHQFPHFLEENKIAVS
| Oligonucleotide | E-score |
| --- | --- |
| AACATGCA | 0.217 |
| GGTAAGTA | 0.104 |
| AGGTGGGA | -0.124 |
| GACAATGA | -0.0235 |
| AAAAAGAG | -0.0172 |
| GATTAAAC | 0.111 |
| CGCGCGCC | -0.169 |
| ACCTATAA | 0.247 |
| GCTATGCA | -0.0153 |
| AAAGAAGT | 0.0744 |
| GCAATCCA | 0.026 |
| GTGGAGTA | 0.0784 |
| AGGGGCCG | -0.325 |
| ATCCTGGG | -0.223 |
| CCGCATAC | -0.0746 |
| ATAAGATG | 0.178 |
| CAAGCATC | -0.0467 |
| GCGGTAAA | 0.00357 |
| CTTTGTAA | 0.142 |
| AACAGGTA | 0.118 |
| CAACGCCG | -0.249 |
| GATTGTGA | 0.15 |
| ACCCGGGG | -0.396 |
| TGTACTAA | 0.218 |
| GACCTACA | 0.0483 |

Sample 4
Target: FOSL2, bZIP domain (human)
Method: DHFR protein complementation
Sample: yeast
Notes: single substitutions, most at no-binding floor
Baseline: wild-type JUN-FOS pair
Direction: higher = stronger binding
Starting sequence: JUN, bZIP domain (human); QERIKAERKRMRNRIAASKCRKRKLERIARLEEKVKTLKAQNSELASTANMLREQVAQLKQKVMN; partner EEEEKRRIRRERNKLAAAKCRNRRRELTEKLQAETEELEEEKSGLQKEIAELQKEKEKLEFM
| Variant | binding fitness [natural log] |
| --- | --- |
| E44I | -0.0586 |
| R30M | 0.105 |
| E44Y | -0.227 |
| L52E | -1.09 |
| M51P | -1.27 |
| A49S | -0.35 |
| L38P | -1.13 |
| Q41N | -0.153 |
| T48C | -0.0349 |
| R53C | -0.762 |
| L38D | -1.06 |
| R30E | 0.249 |

Sample 5
Target: ABI1, truncated, D143A, DHFR fusion (Arabidopsis thaliana)
Method: DHFR PCA, deep sequencing
Sample: yeast
Notes: methotrexate growth selection, single substitutions
Added: (+)-ABA 0.0091 µM
Baseline: wild-type fitted maximum
Direction: higher = stronger binding
Starting sequence: PYL1, truncated, DHFR fusion (Arabidopsis thaliana); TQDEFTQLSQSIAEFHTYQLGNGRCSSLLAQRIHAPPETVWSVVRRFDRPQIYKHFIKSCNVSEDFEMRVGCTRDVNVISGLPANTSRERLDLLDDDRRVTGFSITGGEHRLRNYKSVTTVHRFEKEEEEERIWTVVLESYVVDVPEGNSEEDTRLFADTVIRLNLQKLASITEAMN; partner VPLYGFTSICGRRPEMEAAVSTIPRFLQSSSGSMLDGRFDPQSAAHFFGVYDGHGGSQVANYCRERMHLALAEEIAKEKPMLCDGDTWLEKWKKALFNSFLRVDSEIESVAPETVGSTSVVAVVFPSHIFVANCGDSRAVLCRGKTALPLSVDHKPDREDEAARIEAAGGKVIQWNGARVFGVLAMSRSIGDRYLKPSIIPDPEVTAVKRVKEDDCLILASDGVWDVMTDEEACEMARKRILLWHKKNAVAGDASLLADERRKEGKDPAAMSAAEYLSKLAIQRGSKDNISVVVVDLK
| Variant | relative binding score |
| --- | --- |
| H16F | -2.73% |
| D97G | 7.96% |
| Q19P | 49.6% |
| G71T | -2.55% |
| K54Q | 7.48% |
| T73Y | 47.2% |
| H55P | 66.5% |
| I79C | 35.7% |
| D48Q | -4.25% |
| D96S | -1.38% |
| F66Y | 3.72% |
| P146K | 1.53% |
| Q2R | 19.4% |
| K168D | -0.108% |
| I172H | -4.78% |
| E129Q | 29.7% |

Sample 6
Target: Histone acetyltransferase KAT6A, both winged helices, GST fusion (KAT6A, Homo sapiens, UniProt Q92794, residues 1-181)
Method: protein binding microarray
Form: double-stranded DNA, one strand shown
Sample: in vitro
Concentration: not given
Notes: 8-mer, flanks averaged, mean of 2 arrays, mostly near background
Baseline: not given
Direction: higher = stronger binding
Target sequence (chain): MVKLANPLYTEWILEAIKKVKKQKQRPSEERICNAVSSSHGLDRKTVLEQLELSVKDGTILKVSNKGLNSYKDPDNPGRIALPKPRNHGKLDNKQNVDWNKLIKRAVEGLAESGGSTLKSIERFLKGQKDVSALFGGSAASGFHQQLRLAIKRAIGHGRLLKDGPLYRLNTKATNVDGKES
| Oligonucleotide | E-score |
| --- | --- |
| ATAATGAT | -0.0524 |
| ACATTTAG | -0.175 |
| ACGTTGGG | -0.275 |
| AGCTCGTA | -0.0577 |
| GAACGCAC | 0.079 |
| GGATGTTA | 0.0497 |
| CAGTCGCG | 0.202 |
| GTGATCCA | 0.043 |
| AGCTGCAA | -0.102 |
| CTTGATGA | -0.0387 |
| CCGCTCGC | 0.305 |
| ACCCTGTG | -0.0671 |
| AACTTAGA | -0.0814 |
| CGGGACCC | 0.225 |
| CGGGGACG | 0.143 |
| CGGCGAAG | 0.206 |
| GAGCCAAC | -0.206 |
| GCAGCCGC | 0.205 |
| CCCATTAA | -0.127 |
| CGTAGAAA | 0.0134 |
| GCTGTGCC | -0.033 |
| ACATGAGA | -0.00575 |
| CAGAGAGG | -0.253 |
| CCATGGAC | -0.00611 |
| AGGGGAAA | -0.227 |

Some of these lines once more (sample 6):
| Oligonucleotide | E-score |
| --- | --- |
| GTGATCCA | 0.043 |
| AGCTGCAA | -0.102 |
| CTTGATGA | -0.0387 |
| CCGCTCGC | 0.305 |
| ACCCTGTG | -0.0671 |
| AACTTAGA | -0.0814 |
| CGGGACCC | 0.225 |
